# Literature values, collected from citations in different studies.
# Protocols differ between the studies behind these lines. Numbers after ± are the reported error.
# CDK2: Cyclin-dependent kinase 2 (CDK2, Homo sapiens, UniProt P24941)
# PTGS2: Prostaglandin G/H synthase 2 (PTGS2, Homo sapiens, UniProt P35354)
# UniProt P35354, sequence (whole entry, looked up): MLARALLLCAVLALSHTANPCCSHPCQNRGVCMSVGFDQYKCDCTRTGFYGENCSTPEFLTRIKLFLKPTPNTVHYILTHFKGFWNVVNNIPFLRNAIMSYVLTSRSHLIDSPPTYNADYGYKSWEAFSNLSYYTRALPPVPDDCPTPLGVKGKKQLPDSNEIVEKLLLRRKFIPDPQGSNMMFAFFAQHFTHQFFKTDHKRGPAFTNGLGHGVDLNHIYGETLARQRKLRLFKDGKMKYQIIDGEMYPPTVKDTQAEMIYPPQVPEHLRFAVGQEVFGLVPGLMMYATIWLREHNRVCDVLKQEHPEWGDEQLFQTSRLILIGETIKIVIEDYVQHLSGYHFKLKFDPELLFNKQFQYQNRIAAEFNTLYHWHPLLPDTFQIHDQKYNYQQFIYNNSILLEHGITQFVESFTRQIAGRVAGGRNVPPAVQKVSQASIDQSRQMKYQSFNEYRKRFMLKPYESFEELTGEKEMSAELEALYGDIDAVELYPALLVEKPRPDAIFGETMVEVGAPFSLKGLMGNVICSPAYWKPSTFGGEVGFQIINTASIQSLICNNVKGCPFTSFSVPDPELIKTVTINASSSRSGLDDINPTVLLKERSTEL
# EPAS1 PAS-B domain: Endothelial PAS domain-containing protein 1, PAS-B domain (EPAS1, Homo sapiens, UniProt Q99814)
# UniProt Q99814, sequence (whole entry, looked up): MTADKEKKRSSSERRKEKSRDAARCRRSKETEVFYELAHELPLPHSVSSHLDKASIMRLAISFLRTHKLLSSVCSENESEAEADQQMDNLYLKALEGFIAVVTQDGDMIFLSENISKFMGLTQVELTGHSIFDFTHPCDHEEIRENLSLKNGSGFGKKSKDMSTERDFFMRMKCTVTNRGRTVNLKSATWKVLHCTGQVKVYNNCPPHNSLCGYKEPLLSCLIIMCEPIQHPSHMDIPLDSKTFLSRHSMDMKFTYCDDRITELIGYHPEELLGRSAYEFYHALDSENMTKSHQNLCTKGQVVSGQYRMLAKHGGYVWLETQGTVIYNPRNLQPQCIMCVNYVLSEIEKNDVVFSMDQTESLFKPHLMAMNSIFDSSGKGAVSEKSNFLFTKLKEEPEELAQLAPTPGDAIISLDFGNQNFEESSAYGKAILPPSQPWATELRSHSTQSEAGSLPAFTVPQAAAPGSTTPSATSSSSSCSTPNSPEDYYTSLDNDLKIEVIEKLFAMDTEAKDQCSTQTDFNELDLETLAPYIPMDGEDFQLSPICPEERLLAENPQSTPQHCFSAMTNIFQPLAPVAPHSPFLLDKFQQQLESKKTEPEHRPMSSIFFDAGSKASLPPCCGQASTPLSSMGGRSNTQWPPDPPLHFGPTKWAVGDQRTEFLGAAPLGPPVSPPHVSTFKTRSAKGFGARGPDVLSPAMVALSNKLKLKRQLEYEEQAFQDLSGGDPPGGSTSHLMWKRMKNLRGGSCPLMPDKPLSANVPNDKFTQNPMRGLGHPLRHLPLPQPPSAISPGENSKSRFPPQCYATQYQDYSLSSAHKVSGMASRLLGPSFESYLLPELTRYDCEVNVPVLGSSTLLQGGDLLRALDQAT
# UniProt Q8TEK3, sequence (whole entry, looked up): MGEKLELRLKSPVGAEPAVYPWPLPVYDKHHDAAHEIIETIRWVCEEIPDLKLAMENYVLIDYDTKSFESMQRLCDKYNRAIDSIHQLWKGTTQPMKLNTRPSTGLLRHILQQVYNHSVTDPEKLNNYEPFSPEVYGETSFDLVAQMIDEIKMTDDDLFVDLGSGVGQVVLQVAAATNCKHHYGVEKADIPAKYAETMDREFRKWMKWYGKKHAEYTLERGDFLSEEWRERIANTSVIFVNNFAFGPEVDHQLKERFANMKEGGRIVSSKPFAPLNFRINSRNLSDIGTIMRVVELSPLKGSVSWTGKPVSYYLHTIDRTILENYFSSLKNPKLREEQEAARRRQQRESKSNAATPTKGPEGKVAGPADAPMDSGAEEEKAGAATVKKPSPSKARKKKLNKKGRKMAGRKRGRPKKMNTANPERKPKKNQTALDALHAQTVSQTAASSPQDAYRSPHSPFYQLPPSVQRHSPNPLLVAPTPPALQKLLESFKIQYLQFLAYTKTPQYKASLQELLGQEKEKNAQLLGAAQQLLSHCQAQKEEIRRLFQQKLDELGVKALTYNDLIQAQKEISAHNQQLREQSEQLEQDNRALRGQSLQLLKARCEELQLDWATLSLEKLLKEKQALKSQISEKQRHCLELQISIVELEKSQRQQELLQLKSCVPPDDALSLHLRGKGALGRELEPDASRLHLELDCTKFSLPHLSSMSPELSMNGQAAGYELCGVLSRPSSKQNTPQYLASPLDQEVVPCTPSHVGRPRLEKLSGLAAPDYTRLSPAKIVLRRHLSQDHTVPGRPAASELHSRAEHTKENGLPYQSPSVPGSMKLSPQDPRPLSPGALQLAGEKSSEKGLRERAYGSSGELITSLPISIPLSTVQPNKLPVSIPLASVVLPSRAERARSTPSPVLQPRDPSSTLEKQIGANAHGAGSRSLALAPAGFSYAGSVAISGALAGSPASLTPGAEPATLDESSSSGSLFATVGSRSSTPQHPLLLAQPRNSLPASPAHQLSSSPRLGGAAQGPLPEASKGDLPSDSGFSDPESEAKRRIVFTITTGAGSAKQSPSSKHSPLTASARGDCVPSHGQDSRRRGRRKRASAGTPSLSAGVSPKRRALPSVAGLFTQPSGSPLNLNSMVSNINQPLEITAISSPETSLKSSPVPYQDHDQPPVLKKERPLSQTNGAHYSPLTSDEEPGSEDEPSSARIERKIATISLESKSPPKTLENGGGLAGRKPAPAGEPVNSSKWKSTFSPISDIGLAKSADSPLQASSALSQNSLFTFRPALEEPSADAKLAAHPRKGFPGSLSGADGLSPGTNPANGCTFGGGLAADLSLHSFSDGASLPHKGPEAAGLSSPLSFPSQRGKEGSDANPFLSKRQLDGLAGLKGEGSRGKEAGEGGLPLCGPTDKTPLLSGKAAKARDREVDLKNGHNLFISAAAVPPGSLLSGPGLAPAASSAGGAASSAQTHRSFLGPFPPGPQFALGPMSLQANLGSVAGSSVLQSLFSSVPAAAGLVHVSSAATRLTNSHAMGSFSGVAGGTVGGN
# UniProt Q9HBH9, sequence (whole entry, looked up): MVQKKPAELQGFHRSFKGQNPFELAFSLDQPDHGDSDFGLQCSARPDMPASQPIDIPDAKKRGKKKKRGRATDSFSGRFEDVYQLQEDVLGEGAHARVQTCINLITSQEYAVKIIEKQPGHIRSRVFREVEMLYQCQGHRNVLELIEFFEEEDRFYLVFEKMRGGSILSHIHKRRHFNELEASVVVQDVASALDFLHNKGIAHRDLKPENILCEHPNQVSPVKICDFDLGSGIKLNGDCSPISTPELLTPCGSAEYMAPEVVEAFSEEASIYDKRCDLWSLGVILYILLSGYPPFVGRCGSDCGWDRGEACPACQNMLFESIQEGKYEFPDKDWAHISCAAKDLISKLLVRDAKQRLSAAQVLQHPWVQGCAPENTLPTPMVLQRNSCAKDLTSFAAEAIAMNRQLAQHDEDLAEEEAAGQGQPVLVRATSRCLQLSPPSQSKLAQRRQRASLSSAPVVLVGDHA
# UniProt Q9Y6R4, sequence (whole entry, looked up): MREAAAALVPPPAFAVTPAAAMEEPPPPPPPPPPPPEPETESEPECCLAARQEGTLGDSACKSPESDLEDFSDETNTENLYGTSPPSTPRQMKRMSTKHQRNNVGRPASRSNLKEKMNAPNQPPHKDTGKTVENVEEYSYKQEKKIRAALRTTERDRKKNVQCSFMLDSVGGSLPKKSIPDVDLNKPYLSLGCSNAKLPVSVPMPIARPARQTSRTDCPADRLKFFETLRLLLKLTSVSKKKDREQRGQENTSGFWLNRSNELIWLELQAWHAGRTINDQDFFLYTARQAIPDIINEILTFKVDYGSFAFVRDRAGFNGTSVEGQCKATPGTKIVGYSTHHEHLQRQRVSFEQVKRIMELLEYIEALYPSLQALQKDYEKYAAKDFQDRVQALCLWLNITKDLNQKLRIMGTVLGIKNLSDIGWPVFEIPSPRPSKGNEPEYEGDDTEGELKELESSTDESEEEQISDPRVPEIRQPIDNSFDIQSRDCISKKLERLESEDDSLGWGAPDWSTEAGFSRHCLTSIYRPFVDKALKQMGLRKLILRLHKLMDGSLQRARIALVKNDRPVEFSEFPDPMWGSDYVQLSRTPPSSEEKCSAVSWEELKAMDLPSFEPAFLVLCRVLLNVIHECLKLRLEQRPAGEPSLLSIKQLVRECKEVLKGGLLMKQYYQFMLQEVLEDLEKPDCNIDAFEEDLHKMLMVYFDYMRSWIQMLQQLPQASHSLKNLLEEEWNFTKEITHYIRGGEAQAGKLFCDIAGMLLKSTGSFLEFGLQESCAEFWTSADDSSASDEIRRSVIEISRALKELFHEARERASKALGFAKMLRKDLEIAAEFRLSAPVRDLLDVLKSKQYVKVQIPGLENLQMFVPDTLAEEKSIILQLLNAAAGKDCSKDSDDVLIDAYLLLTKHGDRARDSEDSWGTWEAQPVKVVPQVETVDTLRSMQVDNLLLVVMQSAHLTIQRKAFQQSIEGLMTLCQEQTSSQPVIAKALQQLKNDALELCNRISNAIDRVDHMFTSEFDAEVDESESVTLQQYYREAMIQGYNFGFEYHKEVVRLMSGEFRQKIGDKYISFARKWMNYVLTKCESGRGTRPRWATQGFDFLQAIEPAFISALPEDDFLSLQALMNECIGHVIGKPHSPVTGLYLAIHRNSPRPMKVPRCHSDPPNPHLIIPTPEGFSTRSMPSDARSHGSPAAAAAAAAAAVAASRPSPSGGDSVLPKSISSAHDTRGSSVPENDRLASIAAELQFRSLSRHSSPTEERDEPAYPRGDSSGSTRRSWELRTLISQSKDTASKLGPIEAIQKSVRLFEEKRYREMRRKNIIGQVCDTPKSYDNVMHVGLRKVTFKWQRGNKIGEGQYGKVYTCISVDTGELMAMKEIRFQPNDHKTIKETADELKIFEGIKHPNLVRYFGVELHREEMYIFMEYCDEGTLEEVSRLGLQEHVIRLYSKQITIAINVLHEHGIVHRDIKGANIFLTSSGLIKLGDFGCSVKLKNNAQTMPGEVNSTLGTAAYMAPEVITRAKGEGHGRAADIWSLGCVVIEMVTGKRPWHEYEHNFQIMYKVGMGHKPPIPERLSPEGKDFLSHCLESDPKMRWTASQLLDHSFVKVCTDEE
Compound,target or system,test,system,setting,how to read,quantity,result
CC(=O)N1CCC[C@H]1C(=O)N[C@@H](CCC(N)=O)C(=O)N1CCC[C@H]1C(=O)N[C@H](C(=O)N[C@@H](CC(=O)O)C(=O)N[C@@H](CO)C(=O)N[C@@H](Cc1c[nH]c2ccccc12)C(=O)N[C@H](C(=O)O)C(C)C)C(C)C,affinity clamp fusion protein,binding,,,,Kd,0.14 µM
CN1C/C=C/COCc2cccc(c2)-c2ccnc(n2)Nc2cccc(c2)C1,CDK2,,,,,IC50,0.66 µM
Cc1ccc2n1C(C)C(c1cc3n(c1C)C(C)C1OC4(C(C)O)C=Cc5ccc(C)n5C1C34)C=C2 (centres unmarked),PTGS2,inhibitor,,,,IC50,5.31 µM
Nc1cc(C(F)(F)F)c(-c2nc(N3CCOCC3)nc(N3CCOCC3)n2)cn1,"MAP3K4 (Homo sapiens, UniProt Q9Y6R4)",enzyme activity,,10 µM,relative to: untreated,remaining activity,68%
Cc1cc(NC(=O)c2cccc(NC(=O)/C=C/CN(C)C)c2)ccc1Nc1nccc(-c2cccnc2)n1,"MKNK2 (Homo sapiens, UniProt Q9HBH9)","enzyme activity, inhibitor",,1 µM,relative to: vehicle,remaining activity,7%
CCN(c1cc(-c2ccc(CN3CCOCC3)cc2)cc(C(=O)NCc2c(C)cc(C)[nH]c2=O)c1C)C1CCOCC1,"DOT1L (Homo sapiens, UniProt Q8TEK3)","enzyme activity, inhibitor",,1 µM,,inhibition,2 ± 8%
O=C(O)Cc1cscc1Nc1c(Cl)cccc1Cl,PTGS2,inhibitor,,,,IC50,0.03 µM
Cc1cc2nc(n1)Nc1cccc(c1)CN(C)C/C=C/CCOc1cccc-2c1,CDK2,,,,,IC50,4.7 µM
Cc1c(CC[S+]([O-])CCO[N+](=O)[O-])cc(-c2ccc(S(C)(=O)=O)cc2)n1-c1ccc(F)cc1 (centres unmarked),PTGS2,inhibitor,,,,IC50,0.005 µM
CC[C@H](C)[C@H](NC(=O)[C@H](CC(C)C)NC(=O)[C@H](CCCNC(=N)N)NC(=O)c1ccc(CN2CCNCC2)cc1)C(=O)N[C@@H](Cc1ccccc1)C(=O)O,CDK2,,,,,IC50,12.9 µM
O=C(O)CCCOc1ccc(F)cc1-c1cc(-c2ccccc2C(F)(F)F)n(-c2ccccc2)n1,other FABP isoforms,binding,,,,Kd,≥ 0.24 µM
CCC(=O)O[C@]1(C(=O)SCF)[C@H](C)C[C@H]2[C@@H]3C[C@H](F)C4=CC(=O)C=C[C@]4(C)[C@@]3(F)[C@@H](O)C[C@@]21C,"Nr3c1 (Rattus norvegicus, UniProt P06536)",,"rat, spleen","intravenous, 90 nmol/kg, 2 (unit not given)",,receptor occupancy,67.3%
CC1(C)Cn2nc(-c3ccc(F)cn3)c(-c3ccnc4[nH]ncc34)c2CO1,CSNK1E,binding,,,,Kd,0.137 µM
O=[N+]([O-])c1cc(C(F)(F)F)ccc1NCc1ccco1,EPAS1 PAS-B domain,"binding, isothermal titration calorimetry",,<0.1% DMSO,,Kd,1.5 µM
Cc1c(C#N)c(NCCO)nc2ncnc(N)c12,CDK2,,,,,IC50,29.5 µM
CC1(C)S[C@@H]2[C@H](NC(=O)[C@H](N)c3ccccc3)C(=O)N2[C@H]1C(=O)O,Pseudomonas aeruginosa,,clinical isolate RKI-No_47/09,,,MIC,> 16 mg/L
CNC(=O)[C@@]12C[C@@H]1[C@@H](n1cnc3c(NCc4cccc(Cl)c4)nc(C#Cc4ccc(F)c(F)c4)nc31)[C@H](O)[C@@H]2O,"HTR2C (Homo sapiens, UniProt P28335)",radioligand binding,,,,Ki,5.8 µM
CCOc1ccc(CC(=O)N[C@@H](CCCNC(=N)N)C(=O)N[C@@H](CC(C)C)C(=O)N[C@@H](CC(N)=O)C(=O)N[C@@H](Cc2ccc(F)cc2)C(=O)O)cc1OCC,CDK2,,,,,IC50,5.2 µM
C[C@H]1COCCN1c1nc(-c2cnc(N)cc2C(F)F)nc(N2CCOCC2)n1,VA-ES-BJ,,,,,GI50,0.127 µM
CC[C@H](C)[C@H](NC(=O)[C@H](CC(C)C)NC(=O)[C@H](CCCNC(=N)N)NC(=O)c1csc(-c2ccsc2)n1)C(=O)N[C@@H](Cc1ccccc1)C(=O)O,CDK2,,,,,IC50,56.2 µM
Fc1ncccc1-c1ccc2c(n1)[nH]c1ccncc12,,"binding, Scatchard analysis, refers to: tau aggregates",corticobasal degeneration brain tissue,,,Kd,0.0094 µM
CSCC[C@H](NC(=O)[C@H](CCC(=O)O)NC(=O)[C@@H]1CCCN1C(=O)[C@@H](NC(=O)[C@@H]1CCCN1)[C@@H](C)O)C(=O)N[C@@H](CCCNC(=N)N)C(=O)N[C@@H](CCC(=O)O)C(=O)N[C@@H](CCCCN)C(=O)N[C@@H](CC(C)C)C(=O)N[C@H]1CSSC[C@@H]2NC(=O)[C@@H](NC(=O)[C@H](Cc3ccc(O)cc3)NC(=O)[C@H](CCCNC(=N)N)NC(=O)[C@H](C)NC(=O)[C@@H]3CCCN3C(=O)[C@H](CC(N)=O)NC(=O)[C@@H](NC(=O)[C@H](C)NC(=O)[C@H](C)NC(=O)[C@H](C)N)[C@@H](C)O)CSSC[C@H](NC(=O)CNC(=O)[C@H](CO)NC(=O)[C@H](CC(C)C)NC2=O)C(=O)N[C@@H]([C@@H](C)O)C(=O)N[C@@H](CCC(N)=O)C(=O)N[C@@H](CCC(N)=O)C(=O)N[C@@H](CC(=O)O)C(=O)N[C@@H](CC(C)C)C(=O)N[C@@H](CC(C)C)C(=O)N[C@@H]([C@@H](C)O)C(=O)N[C@@H](CC(C)C)C(=O)N[C@H](C(=O)N2CCC[C@H]2C(=O)N[C@@H](Cc2ccc(O)cc2)C(=O)O)CSSC[C@@H](C(=O)NCC(=O)NCC(=O)N2CCC[C@H]2C(=O)N[C@@H](CCCNC(=N)N)C(=O)N[C@@H](Cc2c[nH]c3ccccc23)C(=O)N[C@@H](CO)C(=O)N[C@H](C(=O)N[C@@H](CCC(=O)O)C(=O)N[C@@H](C)C(=O)O)[C@@H](C)O)NC(=O)[C@H](C(C)C)NC(=O)[C@H](CCCNC(=N)N)NC(=O)[C@H](C(C)C)NC(=O)[C@H](CC(C)C)NC(=O)[C@H](C)NC(=O)[C@H](CCCNC(=N)N)NC(=O)[C@H](C(C)C)NC(=O)[C@H](Cc2ccccc2)NC(=O)[C@H](Cc2c[nH]cn2)NC(=O)[C@H](Cc2c[nH]cn2)NC(=O)CNC1=O,LGR8 (RXFP2),binding,,,,Kd,0.0001 µM
CCN1CC/C(=C\c2cc(C(C)(C)C)c(O)c(C(C)(C)C)c2)S1(=O)=O,PTGS2,inhibitor,,,,IC50,0.011 µM
c1cnc2cc3c(cc2n1)[C@@H]1CNC[C@H]3C1,nicotinic acetylcholine receptor,agonist,,,,EC50,3 µM
COc1cc2c(cc1OC)C1CC(O)C(CC(C)C)CN1CC2 (centres unmarked),,"binding, radioligand binding",rat forebrain,,,Kd,0.0026 µM
c1ccc2c(c1)Cc1ccccc1-2,amyloid beta oligomers,binding,,,,Kd,~15 µM
O=[N+]([O-])c1cc(C(F)(F)F)ccc1NN1CCOCC1,EPAS1 PAS-B domain,"binding, isothermal titration calorimetry",,<0.1% DMSO,,Kd,1.8 µM
CC(C)(C)c1cc(C=C2C(=O)C=CC2=O)cc(C(C)(C)C)c1O,PTGS2,inhibitor,,,,IC50,1.16 µM
CCc1ccccc1-c1ccc(C(=O)NC[C@@H](N)C(=O)O)o1,"Glutamate receptor ionotropic, NMDA 1, with GluN2A (Grin1, Rattus norvegicus, UniProt P35439)",,,together with: saturating glutamate,,EC50,0.093 µM
CCc1cccc(CC)c1NC(=O)c1nn(C)c2c1CCc1cnc(Nc3ccc(C(=O)N4CCCN(C)CC4)cc3OC)nc1-2,CDK2,,,,,IC50,3.62 µM
CNCc1cc(-c2ccccc2F)n(S(=O)(=O)c2cccnc2)c1,,,human,"20 mg, multiple dose",,Tmax,1.07 h
Cc1cccc(C#Cc2ccccc2)n1,,"binding, radioligand binding",whole brain,,,Kd,0.0795 µM
CNC(C)C1CCC(N)C(OC2C(N)CC(N)C(OC3OCC(C)(O)C(NC)C3O)C2O)O1 (centres unmarked),Pseudomonas aeruginosa,,clinical isolate RKI-No_693/15,,,MIC,2 mg/L
CN1C/C=C/COCc2cccc(c2)Nc2nccc(n2)-c2cccc(c2)C1,CDK2,,,,,IC50,0.099 µM
F[C@@H]1CCN(c2ccc(-c3ccc4sc(-c5cccnc5)cc4n3)cn2)C1,alpha-synuclein,binding,,,,Kd,0.009 µM
